Measured values of several laboratories.
Parts stem from different laboratories: compare values within a part only.

Sample 1 — method: RNA Bind-n-Seq; molecule type: RNA; matrix: in vitro; tested at: 100 nM; relative to: input RNA pool; direction: higher = stronger binding; measurement: bound/input enrichment
Target: RING finger protein unkempt homolog, zinc fingers 1-6, SBP tag (UNK, Homo sapiens, UniProt Q9C0B0, residues 30-357)
UniProt Q9C0B0, sequence (30-357, looked up): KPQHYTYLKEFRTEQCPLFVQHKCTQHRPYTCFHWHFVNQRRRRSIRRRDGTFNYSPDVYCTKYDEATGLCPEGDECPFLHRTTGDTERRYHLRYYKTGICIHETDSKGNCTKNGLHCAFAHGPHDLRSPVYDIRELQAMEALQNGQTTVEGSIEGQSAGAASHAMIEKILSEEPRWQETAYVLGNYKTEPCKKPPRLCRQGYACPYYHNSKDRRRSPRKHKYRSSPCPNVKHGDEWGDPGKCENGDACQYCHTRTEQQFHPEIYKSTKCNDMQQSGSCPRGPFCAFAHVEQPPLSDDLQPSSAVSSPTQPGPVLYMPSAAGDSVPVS
Notes: RNA with constant flanks, vertebrate orthologous sites, ends assumed
All sequences stand within: GGGAGUUCUACAGUCCGACGAUC … CAACAGAGGAUUGAGCAUCA
UUGUGACUGCCUCUCCAAACAAGAAUAGUAAUAAGAAAAACAAACAAAAUGAUAUUUGUAUAGAAAACUCAGAAAUCAAAUCAUGUAAAGUAAAUGUUGGCAGUGUUUCAUGCCCUAAUG: 1.62 ratio
AGAAAAUUUUAACCAAGAAUCCGAAGGUAGAAAUACAGGACCGUGGUUGUCUUCCUCACUUAGAAAUAGAUGCACACCUUUGUUCUCUAGAAGGAGACGAGAGGGACGAGAUGAAUCUUC: 0.514 ratio
GUGUUGGUACAGAGUGCUCUGUACCAGUGCUCAUCAUCCCUUCUUCAUACCAACGGUCCCUAGUUAUAGGAAUUUAAUAUUUUUAAAAGUUUUACAUUGCUGUAUAUUCAAAGAUUUGUU: 0.609 ratio
CAAUUCAAUGGUUGAGGGUUCAGAACUCAAAAAGGUUCGCUCCAACUCUAGAAUUUAUCAUAGGUACUUUUUACUGGAUGCCGACAUGCAGAGCCUGAGAUGGGAGCCAUCUAAGAAGGA: 0.359 ratio
ACCCCGAUUUUAGAUGUGAUAUCUAGGCUUUCAUUCCAGUUUGUUUUGUCUUUUCUUGUUUAGAUACCAACCUUUUAAAUUCUUGCAUUUUAGUAAGAAAAGCUACCUUUUUAUGGAUGU: 0.823 ratio
CAUGGGCCCCCUGUGAUUGAAAAUGGGGGUGGCUCAAGAUGACCCUCAGCUGUUCCAAUCCAGUAUUUUUCUCUUUUUUAAAAAAUUACUGUAUUUAUUAUGACAAUGGUGACUCCCCGU: 0.348 ratio
AAAACCCCGAUUUUAGAUGUGAUAUUUAGGUUUUCAUUCCAGUUUGUUUUGUUUUUUGUUUAGAUACCAAUCUUUUAAAUUCUUGCAUUUUAGUAAGAAAGCUAUCUUUUUAUGGAUGUU: 1.63 ratio
GCAAUGAAAAGACAGCCCUCCUCCCAGCCCCCAACUCACUAGGAGACACAAACGUUACCAUAGAAGAGCAAUUUAACUCAAUAAAUUUAUCUUUUCAGGAUGAUCCCGACUCCAGUACCA: 0.598 ratio
AUUUCAAAUGUAGCUAGUUAUAUUUAAUGACCUCAUUCCUGAGUUCCUUUUUCAUUAAAGUAGCUUUCAUUUCUUUUAUUGCAUUUUUAAAAAUAUGAAUAAAGAAAAGGUUCGUGCCAG: 0.255 ratio
CUCCUCUUAAUCCCAUCUCAUCUGUUUCAUAGUGCUGAAAUUCUAUCUCCAGCCUAAUUUUUAGUGAACUUAUUCUAAUUCUAGAGAAACUUCCAGUGUGGAUACUGUGAGCUAUAUGGA: 2.03 ratio
CCGAAAGGCCAAAUUCCCUCCUCCCUUCUACUGCUUCUACCAACUGGAAGCACAGAAAACUAGAAUUUCAUUUAUUUUGUUUUUAAAAGAUACGUUGAUUUCUUGUAACAUCCGAUAGGA: 0.612 ratio

Sample 2 — method: aptamer microarray, sandwich; molecule type: DNA with 2'F-ANA; matrix: in vitro; tested at: 200 nM; with: Cy3 exosite-II aptamer, 400 nM; direction: higher = stronger binding; measurement: mean fluorescence intensity; sequence: GGTTGGTGTGGTTGG
Target: Prothrombin, mature alpha-thrombin (F2, Homo sapiens, UniProt P00734)
Notes: whole 15-mer aptamer, many near background
2'F-ANA at 3 4 8 9 14 15: 286 a.u.
2'F-ANA at 1 2 3 5 7 8 9 10 11 14 15: 47.7 a.u.
2'F-ANA at 3 5 8 9 11 12 15: 197 a.u.
2'F-ANA at 1 2 6 7 8 13: 146 a.u.
2'F-ANA at 2 3 7 10 12 13: 483 a.u.
2'F-ANA at 2 4 5 8 9 10 13: 62 a.u.
2'F-ANA at 2 3 4 5 6 7 10 11 12 13 15: 47.9 a.u.
2'F-ANA at 4 5 7 10 11 12 14 15: 50.5 a.u.
2'F-ANA at 1 3 5 6 7 11 14 15: 46.4 a.u.
2'F-ANA at 2 3 7 8 9 11 12 15: 912 a.u.
2'F-ANA at 2 3 4 5 7 9 10 12 14 15: 134 a.u.
2'F-ANA at 3 4 5 6 7 8 15: 96.4 a.u.
2'F-ANA at 3 4 5 6 7 10 13 14: 44.5 a.u.
2'F-ANA at 4 6 7 9 12: 534 a.u.
2'F-ANA at 1 2 3 6 7 8 9 11 12: 352 a.u.
2'F-ANA at 2 3 4 5 6 7 8 9 11 13: 64.2 a.u.
2'F-ANA at 4 5 6 9 11 12 14 15: 46.8 a.u.
2'F-ANA at 4 5 7 10 11 12 13 14 15: 47.1 a.u.
2'F-ANA at 3 4 6 9 11 12 13 15: 449 a.u.
2'F-ANA at 1 2 5 7 8 11 14: 46.5 a.u.

Sample 3 — method: universal PBM; molecule type: double-stranded DNA, one strand shown; matrix: in vitro; tested at: 600 nM; direction: higher = stronger binding; measurement: E-score
Target: Sal-like protein 4, full length isoform A (SALL4, Homo sapiens, UniProt Q9UJQ4, residues 1-1053)
UniProt Q9UJQ4, sequence (whole entry, looked up): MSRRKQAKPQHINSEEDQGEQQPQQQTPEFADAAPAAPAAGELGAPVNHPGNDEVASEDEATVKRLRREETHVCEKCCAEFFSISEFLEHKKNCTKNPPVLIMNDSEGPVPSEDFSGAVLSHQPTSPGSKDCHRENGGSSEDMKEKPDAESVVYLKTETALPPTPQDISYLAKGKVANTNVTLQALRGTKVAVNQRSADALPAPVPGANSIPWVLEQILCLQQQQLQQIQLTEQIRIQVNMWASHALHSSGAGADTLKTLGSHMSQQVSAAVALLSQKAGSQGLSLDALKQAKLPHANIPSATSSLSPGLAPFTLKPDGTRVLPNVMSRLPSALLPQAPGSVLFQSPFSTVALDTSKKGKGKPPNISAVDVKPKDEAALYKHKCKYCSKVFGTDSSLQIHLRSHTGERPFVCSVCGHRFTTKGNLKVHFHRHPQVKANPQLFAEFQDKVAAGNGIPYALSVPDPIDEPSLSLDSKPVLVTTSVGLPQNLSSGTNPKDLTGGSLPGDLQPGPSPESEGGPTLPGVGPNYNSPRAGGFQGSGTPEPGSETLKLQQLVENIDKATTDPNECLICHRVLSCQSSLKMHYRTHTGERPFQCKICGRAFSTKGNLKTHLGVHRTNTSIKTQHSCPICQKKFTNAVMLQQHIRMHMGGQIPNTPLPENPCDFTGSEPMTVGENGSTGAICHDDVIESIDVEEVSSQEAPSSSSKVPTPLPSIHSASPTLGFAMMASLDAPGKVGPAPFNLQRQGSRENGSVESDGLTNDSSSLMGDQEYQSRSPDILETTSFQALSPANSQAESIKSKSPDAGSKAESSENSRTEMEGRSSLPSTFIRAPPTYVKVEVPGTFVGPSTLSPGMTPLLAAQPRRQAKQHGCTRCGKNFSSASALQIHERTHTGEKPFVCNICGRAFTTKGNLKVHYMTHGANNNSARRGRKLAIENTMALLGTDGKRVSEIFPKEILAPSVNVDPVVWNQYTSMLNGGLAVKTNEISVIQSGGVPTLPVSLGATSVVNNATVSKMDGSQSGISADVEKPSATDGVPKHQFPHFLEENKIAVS
Notes: 8-mer, flanks averaged, mean of replicates
GGGTAGAA: -0.0915
CCGAGGCA: -0.209
ATAATCAA: 0.34
CATGGCGG: -0.272
GTGCCGGA: -0.186
GTGCATGA: 0.145
CCGACGAC: -0.0758
ACATCGCC: -0.0875
AAACCATC: 0.0318
ATCAAATG: 0.131
TGACGGAA: 0.0395
ACGAAACC: -0.026
TCCCGTAA: 0.0809
GACTTGCA: 0.000645
CCATAAGC: 0.117
ACACACAC: -0.0702
AATGTAGT: 0.144
ATGCGTGA: -0.0729
ATAACGGC: 0.169
AAGTTAGC: 0.166
ATCCAAAG: 0.0912

Sample 4 — method: protein binding microarray; molecule type: double-stranded DNA, one strand shown; matrix: in vitro; tested at: not given; relative to: not given; direction: higher = stronger binding; measurement: E-score
Target: Histone acetyltransferase KAT6A, both winged helices, GST fusion (KAT6A, Homo sapiens, UniProt Q92794, residues 1-181)
Notes: 8-mer, flanks averaged, mean of 2 arrays, mostly near background
Residues (chain): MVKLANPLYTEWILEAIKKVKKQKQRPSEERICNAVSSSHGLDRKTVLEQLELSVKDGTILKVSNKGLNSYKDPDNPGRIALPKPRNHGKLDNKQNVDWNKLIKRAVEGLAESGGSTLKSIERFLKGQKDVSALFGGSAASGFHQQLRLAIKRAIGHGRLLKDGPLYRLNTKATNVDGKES
TTGGCAAA: -0.011
CATTCCGA: 0.0982
AGCCTCGA: -0.166
CTAATTTA: 0.00413
AAGATCAC: -0.0164
ACCTTACC: -0.145
CCCCACGC: 0.0419
CTATCATC: 0.0115
AAGGATAC: -0.000205
GAAGTTGC: -0.0969
AGTTCGTG: -0.101
GCTGGGAC: -0.117
CGTTACGA: 0.0786
CTTCTGTA: -0.1
CAATTTCA: -0.0762
TCTCAAGA: -0.159
AGACGTCT: -0.089
AATAAAAC: -0.0953
CAGGTGGC: -0.189
AGGAAGTG: -0.0641

Sample 5 — method: RNA Bind-n-Seq; molecule type: RNA; matrix: in vitro; tested at: 365 nM; relative to: no-protein control; direction: higher = stronger binding; measurement: RBNS enrichment (R)
Target: RNA binding protein fox-1 homolog 2, RRM domain, GST-SBP tag (RBFOX2, Homo sapiens, UniProt O43251-10, residues 100-194)
Notes: natural RNA segment, single round, ends assumed
All sequences stand within: GGGAGUUCUACAGUCCGACGAUC … UGGAAUUCUCGGGUGCCAA
Residues (chain): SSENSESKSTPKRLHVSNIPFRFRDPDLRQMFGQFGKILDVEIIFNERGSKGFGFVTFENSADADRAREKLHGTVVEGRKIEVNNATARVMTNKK
AGCUGUUUUAGCUGAGGGACGUGGUGCCGACGUCCCCAAACCUAGCUAGGCUAAGUCAAGAUCAACAUUCCAGGGUUGGUAAUGUUGGAUGAUGAAACAUUCAUUUUUAC: 0.239
CUGGGUCUGUCCUGACCUCUAGAGGUGAGCUUGCUGCUUGAGGUCUCCCAGCUCCUGACUGUGGCAGCUGUGGUAGUGGCAGUACCAGAAUUAGCCGCUUCUUUUCCUCC: 0.377
CAUCUUACUAAAAGCGUCUUAAAAUGACCAAUUCCAGAAUCAAGCGUAUUCCGUUUUCUUCCUGCAUGAUCCCUGGGCCCUCCCGCAGGCUGAGCAAGUCUGUAAACUGA: 0.835
AAUCAUGGUAUAUCCUCAGGAGAAUGUUCCGUGUCUCGCAACAACUAAUUAUAUUGCAAAUUAUUAGGGCUUCAUUGUAAUCUACUUUAUUAAUGAAAAAUGACAAAGCA: 0.832
UAAGGUUAGAAGCCUGAACCGUUACAAAAGAAGAGCUCACUAUGGUCAAAAAGUGAUGGCUUUCAGGACUUGUUUUUUAUCCUGCCUCACAGUUGUUAAAGUCUGUUCCA: 0.377
CGGGCUGGGGGCAGGAGGAAUCUGCCAAAGACCGACAGUCUUCCUUUACUGCACUUCACAAGGUUCUAAGAUGUGGAGAGUUCACUUGGAUUGCAGUAGCCCAUUGGUUG: 0.743
GGCUGGAGGGAAAAGGAGUGGCUCCUAGAGUCCUGGGGGUCACCCCAGGGCUUUUGCUGACUCUGGGAAAGAGUCUGGAGACCACAUUUGGUUCUCGAACCAUCUACCUG: 0.3
AUAAGGCAGUUGAACCUGAUGAGCAAGAAUUAUAACAGCAAGGAAACAUUAAUGCUUAGAAUUCUGAGAUCCAGCACAACUCAGUCUGUGGGAGCUCAGCUCGCUGCCCA: 0.449
UAGACUAUGGUGUCAGUGAUUUUUGCAGAACACGUGCACAACCCUGAGGUAUGUUUAAUCUAGGCAGGUACGUUUAAGGAUAUUUUGAUCUAUUUAUAAUGAAUUCACAA: 1.82
AAUGAAUGCGCAGCGUAUGACUGUUGGUGAUAAGUGUAUCUGUGUGAGUGUGUGCAACUACUUGUGUGAGGGCAUGGUAGCUAACGUGUGUAUGAGAUCCUAUAUACCAG: 16.1
AUUAUCACAGCGCAAUCAUUGUCUACACAACAUGUACUCUCAACGCCUGGGUUACAUAGGAAAUGCACCCUGAGGUUUUAAUAAAAGCCCCUAUGGCUAUAACUUUAAAU: 0.525
AUGUAGCAGGGUAAAAGAAAAUUCAUUUUCUAACAAAAUACUCACAUUCAUGAUCUACUGUAGGAGAAUAUUUUCUAUGCAUUUAACAUUAUUAAUAUUGGUUUUAACUU: 1.82

A few entries again (sample 3):
GACTTGCA: 0.000645
CCATAAGC: 0.117
ATGCGTGA: -0.0729
GTGCATGA: 0.145
AAGTTAGC: 0.166
ATAATCAA: 0.34
